Results from different studies.
Protocols differ between the studies behind these lines. “And” joins repeats or separate records; there may be more than shown.
DRD2: D(2) dopamine receptor (DRD2, Homo sapiens, UniProt P14416)

CCOC(=O)[C@](CC)(CCCSCCOCCOCCNC(=O)c1ccc(-c2c3ccc(=N)c(S(=O)(=O)O)c-3oc3c(S(=O)(=O)O)c(N)ccc23)c(C(=O)O)c1)NC(=O)c1ccc(C2CC2)c(Cc2ccc(F)cc2)n1 — inhibition (DRD2; specific binding, agonist radioligand binding; 10 µM): -11%
CCN(CC)C(=O)[C@@H]1C=C2c3cccc4c3c(cn4C(=O)c3ccco3)C[C@H]2N(C)C1 — inhibition (DRD2; radioligand binding; 10 µM): < 50%
Cc1cc(Nc2nc(C[C@@]3(C(=O)O)CCN(Cc4cccc(Cl)c4F)[C@H](C)C3)cc(C)c2F)[nH]n1 — inhibition (DRD2; inhibitor; 10 µM): 4.9%
COc1ccccc1N1CCN(CCCCN2CCCc3ccccc3C2=O)CC1 — inhibition (DRD2; ligand displacement, radioligand; 10 µM): 96.9%
COc1ccc(F)cc1S(=O)(=O)Nc1cnc2c(c1)C(=O)NCCO2 — inhibition (DRD2; ligand displacement, radioligand; 10 µM): 0%
Cc1cc(-c2ccc3ccccc3c2)nnc1NCCN1CCN(C)CC1 — activity (DRD2; antagonist; 10000 nM; baseline: control): 0%
C/C(=N\OCCCN1CCCCC1)c1ccc(C(F)(F)F)cc1 — inhibition (DRD2; antagonist, cAMP; 10 µM): 55.5%
N[C@H](C(=O)N1CCCC1)C1CCN(c2nccc3c(-c4ncc(Cl)cc4Cl)cccc23)CC1 — inhibition (D(2) dopamine receptor, short isoform (DRD2, Homo sapiens, UniProt P14416); functional response, antagonist; 10 µM): 4%
O=C1c2ccccc2CCCN1CCCCN1CCN(c2cccc(Cl)c2Cl)CC1 — inhibition (DRD2; ligand displacement, radioligand; 10 µM): 99%
CS(C)(=O)=Nc1ccc(-c2ccc(-c3nc4cc(O[C@@H]5CO[C@H]6[C@@H]5OC[C@H]6O)[nH]c4cc3F)cc2)cc1 — inhibition (DRD2; calcium signal, antagonist; 10 µM): 23%
CN[C@@H]1[C@H](O)[C@H](NC)[C@H]2O[C@]3(O)[C@H](O[C@@H]2[C@H]1O)O[C@H](C)C[C@H]3NC(=O)Cc1ccc(Cl)cn1 — inhibition (DRD2; 10 µM): -1%
O=C(O)c1ccc(-c2nc(-c3ccccc3Cl)c3sccn23)cc1 — specific binding (DRD2; radioligand binding, safety screen panel; 10 µM; baseline: control): 94.4% and 101%
Cc1sc2c(c1C)C(c1ccc(Cl)cc1)=NC(CC(=O)OC(C)(C)C)c1nnc(C)n1-2 (stereo not drawn) — inhibition (DRD2; specific binding, antagonist radioligand binding; 1 µM): -2%
Cc1ccc2c(n1)c(-c1cccc(S(C)(=O)=O)c1)c(C)n2C/C(F)=C/CN — inhibition (DRD2; inhibitor, radioligand binding; 10 µM): 6%
CCN(CC)CCOc1ccc(-c2nnn(Cc3ccc(OC)cc3)c2N)cc1 — inhibition (DRD2; radioligand binding; HEK293; 10 µM, safety profiling): 5.83%

Repeated from above:
COc1ccc(F)cc1S(=O)(=O)Nc1cnc2c(c1)C(=O)NCCO2 — inhibition (DRD2; ligand displacement, radioligand; 10 µM): 0%
